{"data": "Results of several laboratories", "note": "Protocols differ between the studies behind these lines. ± marks the error that the study gave."}
{"Structure (SMILES)": "CCCCCCCCCCCCC(=O)O.O=C1CCCC2C3CCCN4CCCC(CN12)C34 (stereo not drawn)", "test": "electrical conductivity", "test system": "water", "conditions": "303.15 K, critical micelle concentration", "measurement": "standard enthalpy of micellization", "value": "-1.06 kcal/mol"}
{"Structure (SMILES)": "CC[C@H](C)C(=O)N1CCC(NC(=O)Nc2ccc(OC(F)(F)F)c(F)c2)CC1", "test system": "healthy volunteers", "conditions": "oral, 8 mg single dose, 14 (unit not given)", "measurement": "subjects with severe TEAE", "value": "0%"}
{"Structure (SMILES)": "CCCC[C@H]1C(=O)N(C)[C@@H](CCCC)C(=O)N[C@@H](CCCNC(=O)CN2CCN(CC(=O)O)CCN(CC(=O)O)CCN(CC(=O)O)CC2)C(=O)N[C@H](C(=O)NCC(N)=O)CSCC(=O)N[C@@H](Cc2ccc(O)cc2)C(=O)N(C)[C@@H](C)C(=O)N[C@@H](CC(N)=O)C(=O)N2CCC[C@H]2C(=O)N[C@@H](Cc2c[nH]cn2)C(=O)N[C@@H](CC(C)C)C(=O)N(C)CC(=O)N[C@@H](Cc2c[nH]c3ccccc23)C(=O)N[C@@H](CO)C(=O)N[C@@H](Cc2c[nH]c3ccccc23)C(=O)N1C [gallium-68 labelled]", "test": "biodistribution", "test system": "NOD/SCID mice, CHO-hPD-L1 xenograft, CHO-hPD-L1 tumour", "conditions": "60 min post injection, after PBS treatment", "measurement": "tumour uptake", "value": "7.83 ± 0.22 %ID/g"}
{"Structure (SMILES)": "Cc1ccc(/C=C/C(=O)O)cc1-c1cc2c(cc1C)C(C)(C)CCC2(C)C", "test system": "Sprague-Dawley rat, male", "conditions": "oral, 100 mg/kg, 3 h, sesame oil vehicle", "measurement": "blood triglycerides", "value": "146 ± 36.9 mg/dL"}
{"Structure (SMILES)": "O=C(O)CCn1c(=O)oc2cc(Cl)c(Cl)cc21", "test system": "rat, plasma", "conditions": "intravenous, 27 mg/kg", "measurement": "plasma clearance", "value": "0.45 mL/min/kg"}
{"Structure (SMILES)": "CCN(Cc1ccccc1)C(=O)CCc1nc(CN2CCN(C(=O)Cc3ccc(OC)c(OC)c3)CC2)no1", "test system": "rat, kidney", "conditions": "intravenous, 1 mg/kg, 2 h, single dose", "measurement": "concentration", "value": "< 1.8 ng/g"}
{"Structure (SMILES)": "CC(C)[C@H](NC(=O)CNC(=O)[C@H](CCC(N)=O)NC(=O)[C@H](C)N)C(=O)O", "test system": "human", "conditions": "10 mg/kg single dose", "measurement": "subjects given concomitant medication", "value": "0%"}
{"Structure (SMILES)": "O=P([O-])([O-])Oc1ccc(-c2cc(=S)ss2)cc1.[Na+].[Na+]", "test": "HPLC", "test system": "water", "conditions": "48 h, 25 °C", "measurement": "solubility", "value": "2180 µg/mL"}
{"Structure (SMILES)": "O=P1(NCCCl)NCCCO1 (stereo not drawn)", "test system": "rat, plasma", "conditions": "intravenous, 10 mg/kg CP, with: ketoconazole 10 mg/kg oral 50 min before", "measurement": "MRT(0-inf)", "value": "4.92 ± 0.513 h"}
{"Structure (SMILES)": "CC[C@@H]1C[C@]1(NC(=O)[C@@H]1C[C@@]2(CN1C(=O)[C@@H](NC(=O)[C@@H](NC(=O)[C@@H]1CCCCN1C(C)C)C1CCCCC1)C(C)(C)C)C(C)(C)C21CCC1)C(=O)NS(=O)(=O)N1CCCC1", "test": "refers to: Diarrhea", "test system": "human", "conditions": "oral, 50 mg, simultaneous dosing on day 2, with: ritonavir 100 mg", "measurement": "subjects with adverse event", "value": "0%"}
{"Structure (SMILES)": "Cc1ccc(OCC(=O)N(Cc2cccs2)c2ccn[nH]2)cc1", "test system": "Crl:CD(SD) rat, bred female", "conditions": "oral, 125 mg/kg/day, mean per litter, developmental toxicity", "measurement": "corpora lutea count", "value": 17.3}
{"Structure (SMILES)": "N=C(N)NCc1ccc(C(=O)NCCCC[C@H](NC(=O)N[C@@H](CCC(=O)O)C(=O)O)C(=O)O)cc1[211At]", "test system": "SCID mouse, PC-3 xenografts, lungs", "conditions": "4 h", "measurement": "tissue uptake", "value": "1.69 ± 0.67 %ID/g"}
{"Structure (SMILES)": "CC[C@H](C)[C@H](NC(=O)[C@H](CCCNC(=N)N)NC(=O)[C@H](CC(C)C)NC(=O)[C@H](CC(C)C)NC(=O)[C@H](C)NC(=O)[C@@H](NC(=O)[C@H](CCCCN)NC(=O)[C@H](CCCCN)NC(=O)[C@H](C)NC(=O)[C@@H](NC(=O)[C@H](Cc1c[nH]c2ccccc12)NC(=O)[C@@H](NC(=O)[C@H](Cc1ccc(O)cc1)NC(=O)[C@H](Cc1ccccc1)NC(=O)[C@H](CC(=O)O)NC(=O)[C@H](Cc1ccc(O)cc1)NC(=O)[C@@H](NC(=O)[C@H](CC(C)C)NC(=O)[C@H](CO)NC(=O)[C@H](C)NC(=O)[C@H](C)NC(=O)[C@@H](NC(=O)[C@@H](NC(=O)[C@@H](N)CC(C)C)[C@@H](C)CC)C(C)C)C(C)C)[C@@H](C)O)[C@@H](C)CC)C(C)C)C(=O)N[C@@H](C)C(=O)N[C@@H](CCCCN)C(=O)N[C@@H](CCCCN)C(=O)N[C@H](C(=O)N[C@@H](CC(C)C)C(=O)N[C@@H](Cc1ccc(O)cc1)C(=O)N[C@@H](CC(C)C)C(=O)N[C@@H](C)C(=O)N[C@@H](CCCNC(=N)N)C(=O)N[C@@H](CC(N)=O)C(=O)N[C@@H](C)C(=O)O)C(C)C", "test system": "human erythrocytes", "conditions": "4 µM, 1 h, pH 7.4, 37 °C", "measurement": "hemolysis", "value": "8.5%"}
{"Structure (SMILES)": "CCCCCCCC(=O)OC[C@H](NC(=O)[C@H](CO)NC(=O)CN)C(=O)N[C@@H](Cc1ccccc1)C(=O)N[C@@H](CC(C)C)C(=O)N[C@@H](CO)C(=O)N1CCC[C@H]1C(=O)N[C@@H](CCC(=O)O)C(=O)N[C@@H](Cc1cnc[nH]1)C(=O)N[C@@H](CCC(N)=O)C(=O)N[C@@H](CCCNC(=N)N)C(=O)N[C@H](C(=O)N[C@@H](CCC(N)=O)C(=O)N[C@@H](CCC(N)=O)C(=O)N[C@@H](CCCNC(=N)N)C(=O)N[C@@H](CCCCN)C(=O)N[C@@H](CCC(=O)O)C(=O)N[C@@H](CO)C(=O)N[C@@H](CCCCN)C(=O)N[C@@H](CCCCN)C(=O)N1CCC[C@H]1C(=O)N1CCC[C@H]1C(=O)N[C@@H](C)C(=O)N[C@@H](CCCCN)C(=O)N[C@@H](CC(C)C)C(=O)N[C@@H](CCC(N)=O)C(=O)N1CCC[C@H]1C(=O)N[C@@H](CCCNC(=N)N)C(=O)O)C(C)C", "test system": "human, both sexes, plasma", "conditions": "intravenous infusion, 5 µg/kg/h, 65 min infusion", "measurement": "mean residence time", "value": "0.75 ± 0.0333 h"}
{"Structure (SMILES)": "CC(C)[C@H](NC(=O)CNC(=O)[C@H](CCC(N)=O)NC(=O)[C@H](C)N)C(=O)O", "test system": "healthy male volunteers", "conditions": "intravenous, 45 mg/kg/h, 2 h, with: LPS 2 ng/kg", "measurement": "subjects with Probably related AE", "value": "0%"}
{"Structure (SMILES)": "O=c1c2cc(Cl)ccc2sc2c(NCc3ccccc3)nc3ccccc3c12", "test system": "BALB/c nude mice", "conditions": "i.p., 20 mg/kg", "measurement": "body weight gain", "value": "3.68 ± 0.34%"}
{"Structure (SMILES)": "CC[C@H](C)[C@@H]1NC(=O)[C@H](CCCCN)NC(=O)[C@H](CCCCN)NC(=O)[C@H](Cc2ccc(O)cc2)NC(=O)[C@H](CC(C)C)NC(=O)[C@@H]2CCCN2C(=O)CNC(=O)CNC(=O)[C@@H](NC(=O)CN)CSSC[C@@H](C(=O)N[C@@H](CCCCN)C(=O)N[C@@H](CO)C(N)=O)NC(=O)[C@H](CC(C)C)NC(=O)[C@H](CCCCN)NC(=O)[C@H](CCCCN)NC(=O)[C@H]([C@@H](C)CC)NC(=O)[C@H]([C@@H](C)CC)NC(=O)[C@H](CCCCN)NC(=O)[C@H](CCCCN)NC(=O)[C@H](Cc2ccc(O)cc2)NC(=O)[C@H](CC(C)C)NC(=O)[C@@H]2CCCN2C(=O)[C@H](C)NC(=O)CNC(=O)CNC(=O)[C@H](CO)NC(=O)CNC(=O)CNC(=O)[C@H](CO)NC(=O)[C@H](CCCCN)NC(=O)[C@H](CC(C)C)NC(=O)[C@H](CC(C)C)NC(=O)[C@H](CCCCN)NC(=O)[C@H](CCCCN)NC(=O)[C@H]([C@@H](C)CC)NC1=O", "test": "hemolysis", "test system": "uninfected human erythrocytes", "conditions": "1 h", "measurement": "HC10", "value": "6.3 ± 1 µM"}
{"Structure (SMILES)": "CSCC[C@@H]1NC(=O)[C@@H]2CSSC[C@H](NC(=O)[C@H](CO)NC(=O)[C@H](C)N)C(=O)N[C@@H](CCCNC(=N)N)C(=O)N[C@@H]([C@@H](C)O)C(=O)N3CCC[C@H]3C(=O)N[C@@H](CCCCN)C(=O)N[C@@H](CC(=O)O)C(=O)N[C@H]3CSSC[C@H](NC(=O)[C@H](CCCCN)NC(=O)[C@H](CCCNC(=N)N)NC(=O)[C@H](CC(N)=O)NC1=O)C(=O)N[C@@H](CCCCN)C(=O)N[C@H]1CSSC[C@H](NC(=O)[C@@H]4CCCN4C(=O)[C@H](CC(=O)O)NC(=O)[C@H](C)NC3=O)C(=O)N[C@@H](C)C(=O)N[C@@H](CCCCN)C(=O)N[C@@H](CCC(=O)O)C(=O)N[C@@H]([C@@H](C)O)C(=O)NCC(=O)N[C@@H](CSSC[C@@H](C(N)=O)NC(=O)[C@H](CCCNC(=N)N)NC(=O)[C@H](CC(N)=O)NC1=O)C(=O)N1CCC[C@H]1C(=O)N[C@@H](Cc1ccc(O)cc1)C(=O)NCC(=O)N[C@@H](CCCCN)C(=O)N2", "test system": "DA rat pristane-induced arthritis, serum", "conditions": "subcutaneous, 0.1 mg/kg once weekly, 21 days", "measurement": "Triglycerides", "value": "54.2 mg/dL"}
{"Structure (SMILES)": "COC(=O)C[C@](O)(CCCC(C)(C)OC(C)=O)C(=O)O[C@@H]1C(OC)=C[C@]23CCCN2CCc2cc4c(cc2[C@H]13)OCO4", "test system": "CD1 mouse, stomach", "conditions": "subcutaneous, 1 mg/kg, 8 h", "measurement": "tissue concentration", "value": "8.95 ng/mL"}
{"Structure (SMILES)": "C=Cc1c(C)c2cc3nc(c(CC(=O)O)c4[nH]c(cc5nc(cc1[nH]2)C(C)=C5CC)c(C)c4C(=O)O)[C@@H](CCC(=O)NCCCC[C@H](NC(C)=O)C(=O)N[C@@H](Cc1ccccc1)C(=O)N[C@@H](Cc1ccccc1)C(=O)N[C@H](C(=O)N[C@@H](CC(C)C)C(=O)N[C@@H](CCCCN)C(=O)N[C@@H](CO)C(=O)NCC(=O)N[C@@H](CCC(N)=O)C(=O)NCC(=O)N[C@@H](Cc1ccc(O)cc1)C(=O)N[C@@H](CCCNC(=N)N)C(=O)N[C@@H](Cc1c[nH]c2ccccc12)C(=O)N[C@@H](CC(=O)O)C(=O)N[C@@H](CO)C(=O)N[C@@H](Cc1ccc(O)cc1)C(=O)N[C@@H](CCCNC(=N)N)C(=O)N[C@@H](Cc1c[nH]c2ccccc12)C(=O)N[C@@H](Cc1c[nH]cn1)C(=O)N1CCC[C@H]1C(=O)N[C@@H](CO)C(=O)N[C@@H](CS)C(=O)N[C@@H](C)C(=O)N[C@@H](CS)C(=O)NCC(=O)NCC(=O)N[C@@H](CO)C(=O)N[C@@H](CCCCN)C(N)=O)C(C)C)[C@@H]3C", "test": "CCK-8", "test system": "SK-BR-3, human", "conditions": "1 to 200 µM, 24 h", "measurement": "cytotoxicity", "value": "not toxic"}
{"Structure (SMILES)": "O=C(O)[c-]1cccc1.O=C(Oc1ccc(-n2cccc2)cc1)[c-]1cccc1.[Fe+2]", "test": "cyclic voltammetry", "test system": "acetonitrile", "how to read": "baseline: Ag/AgCl", "measurement": "E1/2", "value": "964 mV"}
{"Structure (SMILES)": "CC(=CCC(O)C(C)=Cc1csc(C)n1)CC=CC(C)C(O)C(C)C(=O)C(C)(C)C(O)CC(=O)O (stereo not drawn)", "test system": "human, plasma", "conditions": "intravenous infusion, 11.3 mg/m2 KOS-1584, 3 h infusion, cycle 1", "how to read": "baseline: metabolite over KOS-1584", "measurement": "AUC ratio", "value": "11.2 ± 8.71%"}
{"Structure (SMILES)": "O=C(c1ccc(F)cc1)C1CCN(C2Cc3c(cccc3OCC[18F])CC2O)CC1 (single isomer, unassigned; (-))", "test system": "Sprague-Dawley rat, male, blood", "conditions": "intravenous, dose not given, 5 min", "measurement": "tissue uptake", "value": "0.209 ± 0.029 %ID/g"}
{"Structure (SMILES)": "[2H]C([2H])([2H])C([2H])([2H])C([2H])([2H])OC(C(=O)OC1CCNCC1)(c1ccccc1)c1ccccc1", "test system": "male human, plasma", "conditions": "oral, 18 mg, multiple doses", "measurement": "Tmax", "value": "4.9 h"}
{"note": "A few entries again:"}
{"Structure (SMILES)": "CC[C@H](C)C(=O)N1CCC(NC(=O)Nc2ccc(OC(F)(F)F)c(F)c2)CC1", "test system": "healthy volunteers", "conditions": "oral, 8 mg single dose, 14 (unit not given)", "measurement": "subjects with severe TEAE", "value": "0%"}
{"Structure (SMILES)": "O=C(c1ccc(F)cc1)C1CCN(C2Cc3c(cccc3OCC[18F])CC2O)CC1 (single isomer, unassigned; (-))", "test system": "Sprague-Dawley rat, male, blood", "conditions": "intravenous, dose not given, 5 min", "measurement": "tissue uptake", "value": "0.209 ± 0.029 %ID/g"}
